Measured values of several laboratories.
Numbered parts are unrelated; each lists some results of a single study. “And” joins repeats or separate records; there may be more than shown. Values after ≈ are worked out from the molar mass of the structure shown.
Chain of UniProt P42336 (whole entry, unmodified, looked up): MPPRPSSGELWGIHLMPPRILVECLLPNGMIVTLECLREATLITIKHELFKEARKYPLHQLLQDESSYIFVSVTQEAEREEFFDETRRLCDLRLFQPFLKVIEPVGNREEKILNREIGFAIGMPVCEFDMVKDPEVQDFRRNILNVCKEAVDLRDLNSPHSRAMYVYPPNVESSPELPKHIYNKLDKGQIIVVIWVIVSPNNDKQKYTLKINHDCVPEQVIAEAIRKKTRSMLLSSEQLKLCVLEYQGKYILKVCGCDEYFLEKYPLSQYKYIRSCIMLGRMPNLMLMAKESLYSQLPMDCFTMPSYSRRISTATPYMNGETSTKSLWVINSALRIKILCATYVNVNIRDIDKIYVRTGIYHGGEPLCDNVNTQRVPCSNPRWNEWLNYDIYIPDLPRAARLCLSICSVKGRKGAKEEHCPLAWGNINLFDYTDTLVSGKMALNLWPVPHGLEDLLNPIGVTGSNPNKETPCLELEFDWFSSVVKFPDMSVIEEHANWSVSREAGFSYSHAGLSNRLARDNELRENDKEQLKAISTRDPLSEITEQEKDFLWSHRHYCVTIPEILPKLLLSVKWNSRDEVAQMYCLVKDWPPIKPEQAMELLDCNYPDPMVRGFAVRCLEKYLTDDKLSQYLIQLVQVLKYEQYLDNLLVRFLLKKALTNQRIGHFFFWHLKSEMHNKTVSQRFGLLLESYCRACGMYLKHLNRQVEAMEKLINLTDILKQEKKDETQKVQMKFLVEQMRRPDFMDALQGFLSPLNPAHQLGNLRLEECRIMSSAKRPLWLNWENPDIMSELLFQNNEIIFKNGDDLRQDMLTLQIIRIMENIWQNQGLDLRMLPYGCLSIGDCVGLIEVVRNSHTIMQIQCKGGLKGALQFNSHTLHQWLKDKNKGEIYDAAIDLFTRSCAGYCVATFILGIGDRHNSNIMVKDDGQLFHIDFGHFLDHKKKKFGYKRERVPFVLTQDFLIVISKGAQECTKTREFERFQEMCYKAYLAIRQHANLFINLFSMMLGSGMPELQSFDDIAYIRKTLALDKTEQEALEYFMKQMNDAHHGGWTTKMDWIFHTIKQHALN
Chain of UniProt O00329 (whole entry, looked up): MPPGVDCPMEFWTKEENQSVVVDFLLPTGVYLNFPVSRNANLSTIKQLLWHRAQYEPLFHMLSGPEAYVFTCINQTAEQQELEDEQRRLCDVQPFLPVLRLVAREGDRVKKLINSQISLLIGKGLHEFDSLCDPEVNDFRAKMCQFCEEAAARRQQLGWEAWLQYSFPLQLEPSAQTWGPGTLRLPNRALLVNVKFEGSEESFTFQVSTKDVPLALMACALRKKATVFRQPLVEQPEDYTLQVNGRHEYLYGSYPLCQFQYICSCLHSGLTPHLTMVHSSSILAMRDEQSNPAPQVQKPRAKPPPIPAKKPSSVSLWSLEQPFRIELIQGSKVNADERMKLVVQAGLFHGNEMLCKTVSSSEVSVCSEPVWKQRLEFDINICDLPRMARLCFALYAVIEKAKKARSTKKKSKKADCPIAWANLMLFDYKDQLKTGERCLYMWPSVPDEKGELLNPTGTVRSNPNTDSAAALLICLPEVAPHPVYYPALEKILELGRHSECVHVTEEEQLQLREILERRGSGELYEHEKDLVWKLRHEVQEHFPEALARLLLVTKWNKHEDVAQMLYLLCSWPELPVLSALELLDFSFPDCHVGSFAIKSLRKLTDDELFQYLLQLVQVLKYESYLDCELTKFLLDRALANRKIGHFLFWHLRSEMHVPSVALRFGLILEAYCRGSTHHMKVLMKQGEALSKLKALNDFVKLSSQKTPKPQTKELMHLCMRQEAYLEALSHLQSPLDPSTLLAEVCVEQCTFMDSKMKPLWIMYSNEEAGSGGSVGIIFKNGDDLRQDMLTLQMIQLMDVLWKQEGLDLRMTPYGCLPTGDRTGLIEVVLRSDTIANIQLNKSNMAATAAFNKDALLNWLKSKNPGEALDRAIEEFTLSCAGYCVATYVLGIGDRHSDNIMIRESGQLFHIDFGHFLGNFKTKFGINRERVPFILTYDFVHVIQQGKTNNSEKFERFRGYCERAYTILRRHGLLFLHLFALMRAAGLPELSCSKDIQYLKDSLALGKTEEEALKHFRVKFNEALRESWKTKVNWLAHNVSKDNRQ
Chain of UniProt P22607 (whole entry, looked up): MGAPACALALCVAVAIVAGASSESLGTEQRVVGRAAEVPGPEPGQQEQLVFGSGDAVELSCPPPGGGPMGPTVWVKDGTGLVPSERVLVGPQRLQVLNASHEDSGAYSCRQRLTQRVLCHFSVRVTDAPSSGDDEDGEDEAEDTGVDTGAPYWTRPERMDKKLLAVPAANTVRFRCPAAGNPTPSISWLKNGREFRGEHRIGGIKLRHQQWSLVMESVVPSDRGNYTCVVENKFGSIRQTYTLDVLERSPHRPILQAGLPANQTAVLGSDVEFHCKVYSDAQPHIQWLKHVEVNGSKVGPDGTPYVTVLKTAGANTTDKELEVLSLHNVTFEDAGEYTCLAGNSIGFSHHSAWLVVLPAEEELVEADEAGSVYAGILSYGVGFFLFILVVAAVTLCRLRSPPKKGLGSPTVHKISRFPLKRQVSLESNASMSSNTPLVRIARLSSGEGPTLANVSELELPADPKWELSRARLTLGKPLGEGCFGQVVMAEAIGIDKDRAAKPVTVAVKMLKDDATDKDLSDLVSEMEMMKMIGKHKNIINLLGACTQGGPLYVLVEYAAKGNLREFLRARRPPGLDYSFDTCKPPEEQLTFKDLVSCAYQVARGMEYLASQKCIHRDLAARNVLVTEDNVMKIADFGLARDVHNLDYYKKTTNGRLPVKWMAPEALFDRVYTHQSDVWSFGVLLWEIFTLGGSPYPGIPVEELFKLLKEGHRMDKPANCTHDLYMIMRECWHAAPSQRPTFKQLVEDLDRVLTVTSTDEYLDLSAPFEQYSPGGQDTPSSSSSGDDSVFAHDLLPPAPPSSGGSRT
Chain of UniProt P0C264 (whole entry, looked up): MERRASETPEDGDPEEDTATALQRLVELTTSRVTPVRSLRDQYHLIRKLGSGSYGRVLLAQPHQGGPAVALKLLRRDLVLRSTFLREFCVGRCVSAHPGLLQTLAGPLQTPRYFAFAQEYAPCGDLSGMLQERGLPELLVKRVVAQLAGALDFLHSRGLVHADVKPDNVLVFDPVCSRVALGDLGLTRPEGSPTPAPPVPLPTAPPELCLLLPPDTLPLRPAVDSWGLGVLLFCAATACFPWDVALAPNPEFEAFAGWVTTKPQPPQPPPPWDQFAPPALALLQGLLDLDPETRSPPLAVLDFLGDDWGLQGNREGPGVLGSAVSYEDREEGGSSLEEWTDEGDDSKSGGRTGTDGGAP
Chain of UniProt Q13705 (whole entry, looked up): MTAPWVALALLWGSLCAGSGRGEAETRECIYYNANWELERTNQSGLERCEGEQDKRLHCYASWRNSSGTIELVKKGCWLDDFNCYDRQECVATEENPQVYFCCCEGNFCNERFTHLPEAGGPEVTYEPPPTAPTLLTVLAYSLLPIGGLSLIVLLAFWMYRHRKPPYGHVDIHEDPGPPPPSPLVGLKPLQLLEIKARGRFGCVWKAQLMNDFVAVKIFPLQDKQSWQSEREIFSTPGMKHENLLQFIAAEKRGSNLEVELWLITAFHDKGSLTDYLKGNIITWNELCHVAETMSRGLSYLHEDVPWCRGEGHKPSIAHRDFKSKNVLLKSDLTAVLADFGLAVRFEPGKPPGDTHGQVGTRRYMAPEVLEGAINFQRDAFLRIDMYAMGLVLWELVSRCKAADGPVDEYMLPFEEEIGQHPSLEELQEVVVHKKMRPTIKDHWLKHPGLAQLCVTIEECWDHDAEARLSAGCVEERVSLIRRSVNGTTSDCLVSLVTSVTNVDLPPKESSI
Chain of UniProt Q9UIK4 (whole entry, looked up): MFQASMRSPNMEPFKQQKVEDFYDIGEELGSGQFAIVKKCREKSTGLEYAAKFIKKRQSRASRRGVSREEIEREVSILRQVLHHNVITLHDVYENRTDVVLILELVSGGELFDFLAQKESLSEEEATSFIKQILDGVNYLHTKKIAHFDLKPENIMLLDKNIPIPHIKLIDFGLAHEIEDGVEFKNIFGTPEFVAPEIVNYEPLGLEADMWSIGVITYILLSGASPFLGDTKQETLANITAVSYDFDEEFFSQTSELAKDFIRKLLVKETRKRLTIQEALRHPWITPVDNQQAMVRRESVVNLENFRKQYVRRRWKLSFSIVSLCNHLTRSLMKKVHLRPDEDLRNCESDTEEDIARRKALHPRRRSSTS
Chain of UniProt Q92772 (whole entry, looked up): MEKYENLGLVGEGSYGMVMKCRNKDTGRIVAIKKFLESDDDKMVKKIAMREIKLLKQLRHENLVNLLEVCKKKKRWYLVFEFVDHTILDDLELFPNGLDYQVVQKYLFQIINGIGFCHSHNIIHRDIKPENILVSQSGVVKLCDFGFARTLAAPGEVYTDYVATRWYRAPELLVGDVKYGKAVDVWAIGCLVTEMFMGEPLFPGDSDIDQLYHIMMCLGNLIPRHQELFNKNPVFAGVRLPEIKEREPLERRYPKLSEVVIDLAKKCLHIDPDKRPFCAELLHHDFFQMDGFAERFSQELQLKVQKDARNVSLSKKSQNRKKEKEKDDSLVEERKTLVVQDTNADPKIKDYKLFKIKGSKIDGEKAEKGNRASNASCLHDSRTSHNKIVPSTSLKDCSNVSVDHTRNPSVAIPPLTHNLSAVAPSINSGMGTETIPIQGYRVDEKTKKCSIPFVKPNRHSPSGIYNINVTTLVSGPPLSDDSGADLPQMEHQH

Series 1
Organism: Plasmodium berghei
Action: inhibitor
Cells: Huh-7
Strain: liver stage
Concentration: 10 µM
Time: 24 h
Baseline: untreated control
Structure (SMILES) | infection rate
N#Cc1nn(-c2c(Cl)cc(C(F)(F)F)cc2Cl)c(N)c1[S+]([O-])C(F)(F)F (stereo not drawn) | 98.9%
C[N+]1(C)[C@@H]2CC[C@H]1C[C@@H](OC(=O)C(CO)c1ccccc1)C2 (stereo partly drawn) | 103%
NC(=O)C[S+]([O-])C(c1ccccc1)c1ccccc1 (stereo not drawn) | 77.2%
O=P1(NCCCl)OCCCN1CCCl (stereo not drawn) | 78.1%
CCOC(=O)CC(SP(=S)(OC)OC)C(=O)OCC (stereo not drawn) | 100%

Series 2
Cell line: mouse MPNST tumor cells
Technique: high-content nuclear imaging
Item: cell number
Concentration: 10 µM
Time: 12 h
Setting: mean of 2 replicates
Baseline: plate mean
Direction: higher = more cells
SMILES | nuclei count
C[C@]12CCC(=O)C(O)=C1CC[C@@H]1[C@@H]2CC[C@]2(C)C(=O)CC[C@@H]12 | 3.2 z-score
CC(=O)[C@H]1CC[C@H]2[C@@H]3CC[C@H]4C[C@H](O)CC[C@]4(C)[C@H]3C(=O)C[C@]12C | 1.48 z-score
CCCCN1C2CCC1CC(OC(c1ccc(F)cc1)c1ccc(F)cc1)C2 (stereo not drawn) | -6.36 z-score
CN(C(=O)Oc1nsnc1N1CCOCC1)C1CCCCCCC1 | 1.32 z-score
COc1ccc(C(=O)N2CCCC2=O)cc1 | 0.00595 z-score and 0.155 z-score
CCCCCC[C@H]1C(=O)O[C@H](C)[C@H](NC(=O)c2cccc(NC=O)c2O)C(=O)O[C@@H](C)[C@@H]1OC(=O)CC(C)C | -0.303 z-score
Fc1ccc(C(OCCN2CCN(CCCc3ccccc3)CC2)c2ccc(F)cc2)cc1 | -2.07 z-score and -1.07 z-score
COc1cc(N)c(Cl)cc1C(=O)NC1CN2CCC1CC2 (stereo not drawn) | 0.59 z-score

Series 3
Compound: CCCCC[C@@H](O)CC(=O)N[C@@H]1C(=O)N[C@H](CCCNC(=N)N)C(=O)N[C@@H](CO)C(=O)NCC(=O)N(C)[C@H](Cc2ccccc2)C(=O)N[C@@H](CC(C)C)C(=O)N[C@H](CCCNC(=N)N)C(=O)N[C@@H](CO)C(=O)N[C@H]([C@H](C)O)C(=O)N[C@H](Cc2c[nH]c3ccccc23)C(=O)N[C@@H]([C@@H](C)CC)C(=O)NCC(=O)O[C@@H]1C
Organism: Staphylococcus aureus
Strain: USA300
conditions | MIC
with: menaquinone 16 µg/mL | > 64 µg/mL
with: menaquinone 0.5 µg/mL | 16 µg/mL (≈ 10.5 µM)
with: menaquinone 8 µg/mL | 64 µg/mL (≈ 42.1 µM)
with: ubiquinone 16 µg/mL | 8 µg/mL (≈ 5.27 µM)
with: menaquinone 1 µg/mL | 32 µg/mL (≈ 21.1 µM)
with: menaquinone 32 µg/mL | > 64 µg/mL
with: menaquinone 0.0625 µg/mL | 8 µg/mL (≈ 5.27 µM)

Series 4
Structure (SMILES): Cn1cncc1[C@](O)(COc1ccc(C#N)cc1-c1ccc(OC(F)(F)F)cc1)c1ccc(C#N)cc1
Read-out: cell-free assay
Technique: competition with immobilised ligand
Concentration: 1 µM
target | remaining binding [%]
PIK3CD (Homo sapiens, UniProt O00329) | 79
ACVR2B (Homo sapiens, UniProt Q13705) | 100
FGFR3 (Homo sapiens, UniProt P22607) | 83
CIT (Homo sapiens, UniProt O14578) | 77
PIK3CA (Homo sapiens, UniProt P42336, M1043I) | 100
SBK3 (Homo sapiens, UniProt P0C264) | 100
CDKL2 (Homo sapiens, UniProt Q92772) | 88
LRRK2 (Homo sapiens, UniProt Q5S007) | 100
BRSK1 (Homo sapiens, UniProt Q8TDC3) | 73
DAPK2 (Homo sapiens, UniProt Q9UIK4) | 82

For quick reference, copied from above (series 4):
target | remaining binding [%]
CIT (Homo sapiens, UniProt O14578) | 77
ACVR2B (Homo sapiens, UniProt Q13705) | 100
BRSK1 (Homo sapiens, UniProt Q8TDC3) | 73
